Measured values collected from several papers.
Lines come from different studies, so protocols differ.
MTNR1B: Melatonin receptor type 1B (MTNR1B, Homo sapiens, UniProt P49286)
UniProt P49286, sequence (whole entry, looked up): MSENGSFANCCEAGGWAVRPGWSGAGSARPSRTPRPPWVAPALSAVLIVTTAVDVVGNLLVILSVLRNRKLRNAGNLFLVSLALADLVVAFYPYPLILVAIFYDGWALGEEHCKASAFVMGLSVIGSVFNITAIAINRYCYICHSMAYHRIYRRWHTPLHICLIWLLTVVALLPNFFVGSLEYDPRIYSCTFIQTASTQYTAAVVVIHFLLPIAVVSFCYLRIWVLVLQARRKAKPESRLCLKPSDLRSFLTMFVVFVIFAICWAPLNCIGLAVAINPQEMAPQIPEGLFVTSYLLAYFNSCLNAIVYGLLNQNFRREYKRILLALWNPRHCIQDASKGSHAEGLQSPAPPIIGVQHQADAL
UniProt Q15349, sequence (whole entry, looked up): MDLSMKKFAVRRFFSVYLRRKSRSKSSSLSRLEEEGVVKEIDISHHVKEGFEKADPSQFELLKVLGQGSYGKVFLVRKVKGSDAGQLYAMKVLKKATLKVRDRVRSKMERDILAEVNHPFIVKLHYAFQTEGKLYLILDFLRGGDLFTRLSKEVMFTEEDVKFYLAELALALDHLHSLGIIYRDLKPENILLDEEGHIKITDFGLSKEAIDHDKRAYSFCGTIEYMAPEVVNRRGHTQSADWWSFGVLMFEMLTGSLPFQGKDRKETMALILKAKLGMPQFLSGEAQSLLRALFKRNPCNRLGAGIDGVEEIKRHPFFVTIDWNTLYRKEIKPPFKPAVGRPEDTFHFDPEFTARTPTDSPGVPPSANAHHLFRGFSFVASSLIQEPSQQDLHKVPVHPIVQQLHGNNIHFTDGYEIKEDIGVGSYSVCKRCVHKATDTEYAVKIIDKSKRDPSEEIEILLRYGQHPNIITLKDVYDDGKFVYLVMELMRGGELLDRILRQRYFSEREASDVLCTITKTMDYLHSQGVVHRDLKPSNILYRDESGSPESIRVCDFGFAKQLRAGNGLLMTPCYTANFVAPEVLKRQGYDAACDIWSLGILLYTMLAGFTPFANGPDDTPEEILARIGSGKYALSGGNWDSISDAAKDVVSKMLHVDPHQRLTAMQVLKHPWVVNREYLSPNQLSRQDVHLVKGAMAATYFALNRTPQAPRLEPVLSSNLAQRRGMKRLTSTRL
UniProt Q13188, sequence (whole entry, looked up): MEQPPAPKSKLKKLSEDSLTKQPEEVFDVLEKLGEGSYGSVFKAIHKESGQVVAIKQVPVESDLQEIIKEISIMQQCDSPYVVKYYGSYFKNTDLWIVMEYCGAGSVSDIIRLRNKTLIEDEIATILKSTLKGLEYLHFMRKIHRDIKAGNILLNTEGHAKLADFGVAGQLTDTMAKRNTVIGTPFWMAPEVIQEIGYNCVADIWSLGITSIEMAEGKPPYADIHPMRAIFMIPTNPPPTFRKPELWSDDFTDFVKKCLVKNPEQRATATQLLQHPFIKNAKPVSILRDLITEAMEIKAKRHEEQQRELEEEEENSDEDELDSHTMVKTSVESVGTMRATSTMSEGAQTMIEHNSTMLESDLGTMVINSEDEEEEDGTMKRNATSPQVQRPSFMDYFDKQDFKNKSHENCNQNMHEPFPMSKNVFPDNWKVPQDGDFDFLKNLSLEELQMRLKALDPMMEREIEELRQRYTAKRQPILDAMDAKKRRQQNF
UniProt O15111, sequence (whole entry, looked up): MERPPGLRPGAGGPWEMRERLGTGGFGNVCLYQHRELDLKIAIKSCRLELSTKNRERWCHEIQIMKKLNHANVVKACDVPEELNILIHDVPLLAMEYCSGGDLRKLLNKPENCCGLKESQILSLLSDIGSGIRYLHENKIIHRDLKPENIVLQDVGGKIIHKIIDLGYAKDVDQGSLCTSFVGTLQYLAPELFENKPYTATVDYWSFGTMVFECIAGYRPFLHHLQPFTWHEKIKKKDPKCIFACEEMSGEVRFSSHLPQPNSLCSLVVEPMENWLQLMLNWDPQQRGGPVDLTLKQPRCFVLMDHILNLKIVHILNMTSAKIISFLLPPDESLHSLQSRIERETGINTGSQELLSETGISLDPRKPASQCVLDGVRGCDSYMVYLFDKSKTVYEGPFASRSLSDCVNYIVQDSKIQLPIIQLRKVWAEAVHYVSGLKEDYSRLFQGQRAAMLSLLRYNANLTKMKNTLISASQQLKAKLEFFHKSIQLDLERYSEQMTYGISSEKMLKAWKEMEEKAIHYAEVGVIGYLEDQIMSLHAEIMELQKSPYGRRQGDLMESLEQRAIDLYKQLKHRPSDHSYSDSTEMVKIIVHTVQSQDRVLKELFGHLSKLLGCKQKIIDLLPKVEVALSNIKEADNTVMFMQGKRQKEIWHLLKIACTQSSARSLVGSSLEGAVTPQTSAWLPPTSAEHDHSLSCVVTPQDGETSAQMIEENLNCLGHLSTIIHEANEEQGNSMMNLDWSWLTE
UniProt Q15139, sequence (whole entry, looked up): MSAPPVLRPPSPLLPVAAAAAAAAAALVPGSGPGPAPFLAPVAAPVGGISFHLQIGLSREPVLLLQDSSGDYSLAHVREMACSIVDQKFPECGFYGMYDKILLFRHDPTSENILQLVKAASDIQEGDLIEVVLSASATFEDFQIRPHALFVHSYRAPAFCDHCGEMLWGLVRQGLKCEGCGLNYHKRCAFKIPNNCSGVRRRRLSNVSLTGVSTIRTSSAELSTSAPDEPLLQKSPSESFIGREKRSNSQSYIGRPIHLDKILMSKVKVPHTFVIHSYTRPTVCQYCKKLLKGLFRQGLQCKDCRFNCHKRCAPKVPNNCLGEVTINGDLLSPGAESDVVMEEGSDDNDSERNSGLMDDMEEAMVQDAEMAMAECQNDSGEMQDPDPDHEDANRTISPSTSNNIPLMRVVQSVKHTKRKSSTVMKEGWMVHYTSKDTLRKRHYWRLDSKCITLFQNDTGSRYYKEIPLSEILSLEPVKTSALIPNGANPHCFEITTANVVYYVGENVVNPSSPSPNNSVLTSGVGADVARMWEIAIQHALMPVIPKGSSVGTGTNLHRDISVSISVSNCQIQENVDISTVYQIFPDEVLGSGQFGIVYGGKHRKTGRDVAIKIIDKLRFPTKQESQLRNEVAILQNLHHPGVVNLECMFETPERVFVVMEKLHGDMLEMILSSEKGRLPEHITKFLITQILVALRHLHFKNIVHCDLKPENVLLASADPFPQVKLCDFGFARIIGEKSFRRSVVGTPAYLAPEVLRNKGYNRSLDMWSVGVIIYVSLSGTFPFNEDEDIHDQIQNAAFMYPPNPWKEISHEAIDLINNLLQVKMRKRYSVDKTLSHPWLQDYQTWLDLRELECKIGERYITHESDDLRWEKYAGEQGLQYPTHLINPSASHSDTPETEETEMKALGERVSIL
UniProt Q9Y616, sequence (whole entry, looked up): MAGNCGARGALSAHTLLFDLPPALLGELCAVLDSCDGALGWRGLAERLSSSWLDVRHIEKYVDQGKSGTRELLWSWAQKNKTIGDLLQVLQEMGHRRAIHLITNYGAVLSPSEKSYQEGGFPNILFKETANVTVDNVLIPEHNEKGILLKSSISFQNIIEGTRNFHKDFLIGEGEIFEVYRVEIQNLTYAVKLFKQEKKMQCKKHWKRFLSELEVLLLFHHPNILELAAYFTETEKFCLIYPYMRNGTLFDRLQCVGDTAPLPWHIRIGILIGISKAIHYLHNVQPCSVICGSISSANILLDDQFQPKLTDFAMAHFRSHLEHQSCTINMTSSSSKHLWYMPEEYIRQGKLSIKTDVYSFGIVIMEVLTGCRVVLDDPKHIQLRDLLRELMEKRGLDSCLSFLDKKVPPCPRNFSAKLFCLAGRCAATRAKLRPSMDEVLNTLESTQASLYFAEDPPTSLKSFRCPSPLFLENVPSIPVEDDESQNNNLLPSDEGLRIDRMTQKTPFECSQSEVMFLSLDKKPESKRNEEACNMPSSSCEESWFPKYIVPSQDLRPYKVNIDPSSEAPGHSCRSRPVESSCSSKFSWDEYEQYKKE
UniProt Q9UF33, sequence (whole entry, looked up): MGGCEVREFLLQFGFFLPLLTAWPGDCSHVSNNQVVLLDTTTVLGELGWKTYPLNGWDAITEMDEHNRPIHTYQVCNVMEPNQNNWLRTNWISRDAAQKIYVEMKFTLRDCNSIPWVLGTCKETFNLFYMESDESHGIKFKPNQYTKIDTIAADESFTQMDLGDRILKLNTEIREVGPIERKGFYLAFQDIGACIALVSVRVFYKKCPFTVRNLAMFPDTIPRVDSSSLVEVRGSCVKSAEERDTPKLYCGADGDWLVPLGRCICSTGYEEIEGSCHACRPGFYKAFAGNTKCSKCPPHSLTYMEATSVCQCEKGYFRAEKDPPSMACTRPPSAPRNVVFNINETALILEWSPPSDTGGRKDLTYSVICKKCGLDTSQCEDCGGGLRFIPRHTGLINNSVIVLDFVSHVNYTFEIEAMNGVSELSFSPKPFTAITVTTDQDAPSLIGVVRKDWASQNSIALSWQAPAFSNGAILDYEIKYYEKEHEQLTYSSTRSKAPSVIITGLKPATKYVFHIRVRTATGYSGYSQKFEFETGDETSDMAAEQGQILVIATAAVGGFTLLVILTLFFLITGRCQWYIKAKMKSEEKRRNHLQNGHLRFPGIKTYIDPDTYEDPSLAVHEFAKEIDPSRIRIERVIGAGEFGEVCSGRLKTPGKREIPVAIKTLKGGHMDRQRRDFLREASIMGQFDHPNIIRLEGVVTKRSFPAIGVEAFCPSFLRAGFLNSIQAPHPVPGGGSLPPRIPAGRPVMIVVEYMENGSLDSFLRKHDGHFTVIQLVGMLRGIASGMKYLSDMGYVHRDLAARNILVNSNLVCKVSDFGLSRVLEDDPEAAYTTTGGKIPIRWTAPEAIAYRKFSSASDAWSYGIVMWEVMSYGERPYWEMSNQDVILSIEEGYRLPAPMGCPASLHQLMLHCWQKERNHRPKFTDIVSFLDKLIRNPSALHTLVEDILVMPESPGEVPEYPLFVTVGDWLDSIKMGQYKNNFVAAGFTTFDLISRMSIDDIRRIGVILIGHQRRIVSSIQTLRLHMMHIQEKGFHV

| SMILES | target | assay | system | setting | endpoint | value |
| --- | --- | --- | --- | --- | --- | --- |
| CCCCC(=O)Nc1ccc(-c2ccc3ncn(CCC)c(=O)c3c2)cn1 | Ribosomal protein S6 kinase alpha-2, N-terminal kinase domain (RPS6KA2, Homo sapiens, UniProt Q15349) | binding, competition with immobilised ligand |  | 0.5 µM | remaining binding | 100% |
| COc1ccc2[nH]cc(CCNC(C)=O)c2c1I | MTNR1B | cAMP, agonist, TR-FRET | CHO-K1 | 20 min | Emax | 90% |
| COc1ccc(C(=O)NCc2ccc(OC)c(OC)c2)cc1 | Replicase polyprotein 1ab, main protease (rep, Porcine epidemic diarrhea virus, UniProt P0C6Y4) | enzyme activity, inhibitor, FRET |  | 10 µM | inhibition | 28.7% |
| CN1CC(Oc2cnc(C#N)cc2-c2ccn3nc(NC(=O)C4CC4)cc3c2)C1 | PRKD1 (Homo sapiens, UniProt Q15139) | enzyme activity, inhibitor |  | 1 µM | inhibition | 3% |
| CNc1ncc2c(/C=C/C(=O)N3CCC(OC)CC3)nn(Cc3cccc(C(F)(F)F)c3)c2n1 | GRK2 (Homo sapiens, UniProt P25098) | enzyme activity, inhibitor, radiometric |  | 1 µM | remaining activity | 98% |
| c1cnn2ncc(-c3ccnc(N4CCC45COC5)n3)c2c1 | TRPM6 (Homo sapiens, UniProt Q9BX84) | binding |  | 1 µM | remaining binding | 80% |
| C=CC(=O)N1CCC(COCC(=O)N2CCN(c3nc(-c4cnc(N)nc4C(F)F)nc(N4CCOC[C@@H]4C)n3)CC2)CC1 | STK3 (Homo sapiens, UniProt Q13188) | binding, competition with immobilised ligand |  | 1 µM | remaining binding | 100% |
| COc1cc(-c2cncc3c2CN(C)Cc2cc(N4CCNCC4)ccc2-3)cc(OC)c1OC | DDR2 (Homo sapiens, UniProt Q16832) | enzyme activity, inhibitor |  | 1 µM | remaining activity | 91% |
| C1=C/COCc2cc(ccc2OCCN2CCCC2)Nc2nccc(n2)-c2cccc(c2)COC/1 | EPHA6 (Homo sapiens, UniProt Q9UF33) | binding |  | 0.1 µM | remaining binding | 100% |
| CC[C@H](C)[C@H](NC(=O)[C@H](CCC(N)=O)NC(=O)[C@@H](NC(=O)[C@H](CCSC)NC(=O)[C@H](CCCCN)NC(=O)[C@H](CO)NC(=O)[C@@H](NC(=O)[C@H](CCSC)NC(=O)[C@H](CC(C)C)NC(=O)[C@H](CC(N)=O)NC(=O)[C@@H](NC(=O)[C@@H](NC(=O)[C@H](CO)NC(=O)[C@H](CC(C)C)NC(=O)[C@H](C)NC(=O)[C@H](CCCNC(=N)N)NC(=O)[C@H](CCC(=O)O)NC(=O)[C@H](Cc1ccc(O)cc1)NC(=O)[C@H](Cc1ccccc1)NC(=O)[C@H](C)NC(=O)[C@H](CC(N)=O)NC(=O)[C@@H](N)CCCCN)[C@@H](C)CC)[C@@H](C)CC)[C@@H](C)O)C(C)C)C(=O)N[C@@H](CC(N)=O)C(=O)N[C@H](C(=O)O)C(C)C | Cyclin-dependent kinase 5, with p35 (CDK5, Homo sapiens, UniProt Q00535) | enzyme activity, inhibitor, radiometric |  | 1 µM, 20 min | remaining activity | 97% |
| NC/C(=C\F)COc1cccc(Cn2c(=S)[nH]c(=O)c3[nH]cnc32)c1 | Lactoperoxidase (LPO, Bos taurus, UniProt P80025) | enzyme activity, inhibitor |  | 5 µM | remaining activity | 60% |
| Cc1cc([C@@H](C)Nc2ccccc2C(=O)O)c2nc(N3CCC(F)(F)CC3)c(C#N)c(=O)n2c1 | CHUK (Homo sapiens, UniProt O15111) | binding, competition with immobilised ligand |  | 1 µM | remaining binding | 91% |
| CC(=O)NCCc1c(Cc2ccccc2)[nH]c2ccccc12 | MTNR1B | GTPγS binding, agonist, radiometric |  | cell membranes | Emax | 20% |
| Nc1ncnc2occ(-c3ccc(NC(=O)Nc4cc(C(F)(F)F)ccc4F)cc3)c12 | IRAK3 (Homo sapiens, UniProt Q9Y616) | cell-free assay, inhibitor |  | 20 µM | remaining signal | 35% |

For quick reference, copied from above:
| SMILES | target | assay | system | setting | endpoint | value |
| --- | --- | --- | --- | --- | --- | --- |
| COc1ccc2[nH]cc(CCNC(C)=O)c2c1I | MTNR1B | cAMP, agonist, TR-FRET | CHO-K1 | 20 min | Emax | 90% |
